Assay results collected from several papers.
A part holds a random share of what one study measured. Positions count from the first letter of the parent shown.

Study 1 — technique: universal PBM; molecule type: double-stranded DNA, one strand shown; medium: in vitro; concentration: not given; reading: higher = stronger binding
Target: Sal-like protein 4, full length isoform B (SALL4, Homo sapiens, UniProt Q9UJQ4-2, residues 1-616)
Setting: 8-mer, flanks averaged, mean of replicates
`CAGCAGGG` has an E-score of -0.236.
`CGCGCGCC` gave an E-score of -0.169.
For `AACAGGTA`, the E-score was 0.118.
For `CGAGATTC`, the E-score was -0.143.
`CGGTACCA` has an E-score of -0.157.
`AAGCCCAC` has an E-score of -0.144.
For `GTAAATTA`, the E-score was 0.315.
`ATCGTGAA` gave an E-score of 0.0315.
For `AATAGCCA`, the E-score was 0.128.
For `CAGACTGC`, the E-score was -0.178.
`AAAGGTTG` has an E-score of -0.0914.
`CCGTAGCG` gave an E-score of -0.238.
`CCTCAATC` gave an E-score of 0.00289.
The E-score of `AAGCCAGT` is reported as -0.0303.
For `ACTGTGCA`, the E-score was -0.0216.
For `GCATAGAA`, the E-score was 0.0397.
With `AGACTGAC` the E-score was -0.0715.
`CAGAAAAC` has an E-score of -0.0276.
With `AGCTATCG` the E-score was -0.0149.
`CTAGCGCA` has an E-score of -0.224.
For `CAAGGTGC`, the E-score was -0.187.
For `AGATTACT`, the E-score was 0.203.
The E-score of `AGTGCTAG` is reported as -0.0265.
With `ATCGAAAG` the E-score was 0.0871.

Study 2 — technique: DHFR PCA, deep sequencing; medium: yeast; with: (+)-ABA 0.032 µM; baseline: wild-type fitted maximum; reading: higher = stronger binding
Target: ABI1, truncated, D143A, DHFR fusion (Arabidopsis thaliana)
Setting: methotrexate growth selection, single substitutions
Starting sequence: PYL1, truncated, DHFR fusion (Arabidopsis thaliana); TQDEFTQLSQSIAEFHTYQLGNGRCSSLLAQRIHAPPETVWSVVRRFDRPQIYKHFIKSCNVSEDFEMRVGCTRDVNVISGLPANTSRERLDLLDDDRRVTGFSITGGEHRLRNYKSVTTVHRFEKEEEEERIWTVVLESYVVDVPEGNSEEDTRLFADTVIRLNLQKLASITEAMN
`E131W` — result for “relative binding score”: 16.4%.
`G71T` — result for “relative binding score”: -2.03%.
Under “relative binding score”, `R49K` is recorded as 48.9%.
Under “relative binding score”, `H34N` is recorded as 39.8%.
`K168D` — result for “relative binding score”: 0.316%.
`H110F` — result for “relative binding score”: 21.5%.
For `Q19P`, “relative binding score” read 45.8%.
`E129V`: “relative binding score” 12.3%.
For `P37T`, “relative binding score” read 7.1%.
For `R45W`, “relative binding score” read -1.68%.
`I79C` — result for “relative binding score”: 35.1%.
`H55C`: “relative binding score” 25.6%.
Under “relative binding score”, `G108W` is recorded as -1.44%.
`T73Q` — result for “relative binding score”: 10.7%.
`F66Y` — result for “relative binding score”: 3.69%.

Study 3 — technique: RNA Bind-n-Seq; molecule type: RNA; medium: in vitro; concentration: 365 nM; baseline: no-protein control; reading: higher = stronger binding
Target: RNA binding protein fox-1 homolog 2, RRM domain, GST-SBP tag (RBFOX2, Homo sapiens, UniProt O43251-10, residues 100-194)
Setting: natural RNA segment, single round, ends assumed
Constant ends, left off below: GGGAGUUCUACAGUCCGACGAUC … UGGAAUUCUCGGGUGCCAA
Target sequence (chain): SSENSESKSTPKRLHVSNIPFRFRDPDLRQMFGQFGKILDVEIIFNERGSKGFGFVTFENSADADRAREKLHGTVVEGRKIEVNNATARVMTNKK
`UGCUCAGUGCUGAACUAUAACUGCCACACGUCCCCUCAUAUCAAAUGGAGCAGUGGCAAUCUCCCUGUUCCCCAACCUAACUCUUGGAACUUGGCCCUCUCCUUUCUUCC`: “RBNS enrichment (R)” 0.432.
Under “RBNS enrichment (R)”, `CAGCCAAGGCUCUGUUUAUGCUUUUGGGGGGCAUAUAUUGGGUUCCAUUCUCACCUAUCCACACAACAUAUCCGUAUAUAUCCCCUCUACUCUUACUUCCCCCAAAUUUA` is recorded as 1.03.
`CAGUUACUCAGCCCUUUUUAUUUCCUUGUUUGAGAGGUAUGCAACCUUGCCUUUACCCAAACUUUGUGGUUUACCCCUUCACCUCCCAGGGGCCCCGACUCUUAAGGGGG` — result for “RBNS enrichment (R)”: 2.9.
Under “RBNS enrichment (R)”, `UGUUUUCAUUGUUUGCAGCGGAUUACUGGACAUCAAAGAUUCAUUGCACUUAUGAACAAGGAACCUUAUUUUCAAUUUCUGUGUAAUUUUGCAAGGCUGUACAAUGUGCU` is recorded as 0.848.
`UGCCUAGGUCCUAAAACAGUAAGAAAGAAACGUUUUCAUGCUUCUGGCCAGGAAUCCUGGGUCUGCAACUUUGGAAAACUCCUCUUCACAUAACAAUUUCAUCCAAUUCA` — result for “RBNS enrichment (R)”: 0.358.
`ACCCCAGGCAGGCCCUGUGUACCCCUCCUCUAUACUCCAGCAUUUAAUCUUGUGGCUGCUUUCUUUUUAUUUCCCACUUUCUCUGUUUUAUAACAGAACCUUCUGUAUAG`: “RBNS enrichment (R)” 1.49.
`CCUAAUUUAUUCUUAUUUGACAGAGGGUAUGGAAGACUUGCAAUUUGAAAACUGGGGACCAGUUCCAAAGUCAGUAAUUGUGUUAACCACGUGUAUAACAGCUCUGCUGG`: “RBNS enrichment (R)” 0.424.
Under “RBNS enrichment (R)”, `AGCUGCCCCCAGGGAGCUCUGCUGCCCUUGCUGGCCCUGCCCUUCCCACAGGUGAGCAGGGCUCCUGUCCACCAGCACACUCAGUUCUCUUCCCUGCAGUGUUUUCAUUU` is recorded as 0.488.
`AAGAAAAGGGACCUAGCUUAGCCAUGGCCCUGGAGAUGAAGUUACUGAGGCUGAGGGUAGAUGGGUUCAGUUCAGUGUCUCCUGCCCAGACUGGACAUCUUGGUCUUUUU`: “RBNS enrichment (R)” 0.552.
`CUGCAAAAAAAAAAAAAAAAAAAAAAAAAAAAAAAUCAAAUAAGCCACAAAGCUAAAAGACUGCGCCCCAUUCUGAAGAAGGCACAAGUACAUGGGAGAGUCCUGCCUUA` — result for “RBNS enrichment (R)”: 1.32.
For `GAGCCUCGGCCUGGCUGGCCAGGACACACUGAAAAGCAGCCUUUUUCACCAUGGCAAACCUAAAUGCAGUCAGUCACAAACCAGCCUGGGGCCUUCCUGGCUUUGGGAGU`, “RBNS enrichment (R)” read 0.378.
Under “RBNS enrichment (R)”, `AUCUCGGUGCACUAGGAAGUGAAUCCCGCAGGACAGCUGCACUCAGGGAUACGCCCAACACCAUGGCCUGCAACCCCAGGGUCAAGGGUGAAGGAAAGCAAGCUCACCGC` is recorded as 0.736.

Study 4 — technique: protein binding microarray; molecule type: double-stranded DNA, one strand shown; medium: in vitro; concentration: not given; baseline: not given; reading: higher = stronger binding
Target: Histone acetyltransferase KAT6A, both winged helices, GST fusion (KAT6A, Homo sapiens, UniProt Q92794, residues 1-181)
Setting: 8-mer, flanks averaged, mean of 2 arrays, mostly near background
Construct (chain): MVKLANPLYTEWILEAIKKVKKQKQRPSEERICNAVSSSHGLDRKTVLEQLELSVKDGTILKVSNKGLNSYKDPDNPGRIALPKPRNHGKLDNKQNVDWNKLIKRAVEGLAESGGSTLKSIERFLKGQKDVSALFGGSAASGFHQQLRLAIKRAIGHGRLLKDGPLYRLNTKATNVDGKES
`ACCGCGCG` gave an E-score of 0.39.
`AGTTGGGA` gave an E-score of -0.191.
With `AGAAACCC` the E-score was -0.0141.
The E-score of `AACTCGTA` is reported as -0.173.
`ATCGACGG` has an E-score of 0.163.
`ACATGTGG` has an E-score of -0.027.
The E-score of `GAGTAGAA` is reported as -0.0818.
`ACTGAATC` gave an E-score of -0.0718.
The E-score of `AACACGAG` is reported as -0.1.
`ACCAGTAT` has an E-score of -0.0483.
`GTAAGAAA` has an E-score of -0.133.
For `GGGGTTAA`, the E-score was -0.107.
With `AGTATGTA` the E-score was -0.127.
`AGTCCTCA` has an E-score of -0.163.
The E-score of `GACGGTAA` is reported as 0.276.
With `ACTTTCGA` the E-score was -0.0224.
With `CAGGTCAA` the E-score was -0.253.
With `TACGGACA` the E-score was 0.187.
`AGTCTTCC` has an E-score of -0.0182.
For `GCAAGGAA`, the E-score was -0.0967.
For `AGCCATAG`, the E-score was -0.112.
`ATGTTCTC` gave an E-score of -0.00881.
With `GGATACAA` the E-score was -0.0643.
For `GGTTTGAC`, the E-score was 0.104.
The E-score of `CCATGGAC` is reported as -0.00611.

Study 5 — target: CCNA2, cyclin fold, Cln2 fusion (human); technique: yeast growth competition, sequencing; medium: yeast; setting: strong parent motif; baseline: not given; reading: higher = stronger binding
Starting sequence: MICAL3 docking peptide (human); LQLRRQLSFSEDS
Under “normalised enrichment score”, `S10A` is recorded as 2.79.
`Q6T` — result for “normalised enrichment score”: 2.11.
`F9A`: “normalised enrichment score” 0.128.
`L7A` — result for “normalised enrichment score”: 0.13.
`F9V`: “normalised enrichment score” -0.138.
Under “normalised enrichment score”, `S8C` is recorded as 3.48.
For `R5T`, “normalised enrichment score” read 0.201.
For `S8Q`, “normalised enrichment score” read 3.41.
For `S8D`, “normalised enrichment score” read 4.47.
`Q6V`: “normalised enrichment score” 2.07.
`R4S` — result for “normalised enrichment score”: 1.17.
For `R5W`, “normalised enrichment score” read 0.568.
`R4Y`: “normalised enrichment score” 0.903.
`L3H`: “normalised enrichment score” 1.99.
`L3T` — result for “normalised enrichment score”: 5.63.
`F9C`: “normalised enrichment score” 0.0941.

Study 6 — technique: RNA Bind-n-Seq; molecule type: RNA; medium: in vitro; concentration: not given; setting: RNA with constant flanks, ends assumed; baseline: input RNA pool; reading: higher = stronger binding
Target: RING finger protein unkempt homolog, zinc fingers 1-6, GST-SBP tag (UNK, Homo sapiens, UniProt Q9C0B0, residues 30-357)
UniProt Q9C0B0, sequence (30-357, looked up): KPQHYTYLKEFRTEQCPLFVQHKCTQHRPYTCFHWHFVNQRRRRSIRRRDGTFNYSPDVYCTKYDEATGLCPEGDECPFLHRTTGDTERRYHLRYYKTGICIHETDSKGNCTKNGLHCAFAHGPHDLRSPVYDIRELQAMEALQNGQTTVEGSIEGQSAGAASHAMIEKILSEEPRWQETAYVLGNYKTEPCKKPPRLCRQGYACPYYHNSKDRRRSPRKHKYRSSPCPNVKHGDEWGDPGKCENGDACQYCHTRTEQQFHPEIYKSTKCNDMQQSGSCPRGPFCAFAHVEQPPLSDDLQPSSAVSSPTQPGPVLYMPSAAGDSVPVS
Constant ends, left off below: GGGAGUUCUACAGUCCGACGAUC … CAACAGAGGAUUGAGCAUCA
The bound/input enrichment of `AAUGUGGAAACAGUAGAAUAUAAGAACAUUUGUUUCACAGUAUGGGAUGUUGGUGGUCAAGACCGAAUUAGGCCUCUCUGGAAGCAUUACUUCCAGAAUACCCAGGGUCUUAUUUUUGUG` is reported as 0.583 ratio.
With `CUUGCAGUGAGGAAAAGAACCAUUAUCGCUCUUGGCCAUCUGGUUAUGAGCUGUGGAAAUACCGUUUUUGUAGAUCUUAUUGAACAUCUGUUGUCAGAGUUGUCCAAAAAUGAUUCUAUG` the bound/input enrichment was 0.41 ratio.
`AAAGUUUCAAACACUUUCACUUACGCCAGAGUACUGUAAAAUCUAUGUCUUUUCCAGCGUCCGCAUUAAGCCGGGCGCCGUUUGCCGUGUCCUUCGUUCCACGAGCCCUUUGGUUUUUAC` has a bound/input enrichment of 0.125 ratio.
The bound/input enrichment of `CGCCCAGUGAAGGCAUCAAGGGAAGAUAGUGGUUUAUUUAGUCCUAUUCGAUCCUCUGCUUUCCGUCCUCUUGGAGGCUGUACUCCAGCUGAAUGUUUUUGCCAAACAGAUAUUGGUGGA` is reported as 0.857 ratio.
With `UCCACCAAGAGCCUCUUCCUUGGCCAGAAGCUGAACCUUAUUCACAGUGAAAUCAGUAAUUCCGCCGGCUUUGAGGUGGAGGCCAUAAUCAAUCCUACCAAUGCUGACAUUGACCUUAAA` the bound/input enrichment was 0.123 ratio.
For `CUGGUAGACGACAAGCCUGGCCCUAGUCCGUUUUCUGAUCAGUCAGAACCCACAAUAACUACCCGCCGUCCUGUGGCUUUCAACCCAUUUCUCAUCCCAGGAGUGUCUCCUGGACUCAUC`, the bound/input enrichment was 0.194 ratio.
With `GAACUGGUGGACUACAUUACAAUAAGCAGAGGCUGUCUGACAGAGCAGACUUACCCUGAAGCCGUCCGAAUGGUAUCUUGCAAUAUAUUCAGAACUCUCCCUCCUAGUGACAGCAAUGAA` the bound/input enrichment was 0.267 ratio.

For quick reference, copied from above (study 1):
`AAGCCCAC` has an E-score of -0.144.
For `GTAAATTA`, the E-score was 0.315.
`ATCGTGAA` gave an E-score of 0.0315.
For `AATAGCCA`, the E-score was 0.128.
For `CAGACTGC`, the E-score was -0.178.
`AAAGGTTG` has an E-score of -0.0914.
`CCGTAGCG` gave an E-score of -0.238.
`CCTCAATC` gave an E-score of 0.00289.
The E-score of `AAGCCAGT` is reported as -0.0303.
For `ACTGTGCA`, the E-score was -0.0216.
For `GCATAGAA`, the E-score was 0.0397.
With `AGACTGAC` the E-score was -0.0715.
`CAGAAAAC` has an E-score of -0.0276.
With `AGCTATCG` the E-score was -0.0149.
